Measurements collected from several papers.
Numbered parts are unrelated; each lists some results of a single study.
Chain of UniProt Q04771 (whole entry, looked up): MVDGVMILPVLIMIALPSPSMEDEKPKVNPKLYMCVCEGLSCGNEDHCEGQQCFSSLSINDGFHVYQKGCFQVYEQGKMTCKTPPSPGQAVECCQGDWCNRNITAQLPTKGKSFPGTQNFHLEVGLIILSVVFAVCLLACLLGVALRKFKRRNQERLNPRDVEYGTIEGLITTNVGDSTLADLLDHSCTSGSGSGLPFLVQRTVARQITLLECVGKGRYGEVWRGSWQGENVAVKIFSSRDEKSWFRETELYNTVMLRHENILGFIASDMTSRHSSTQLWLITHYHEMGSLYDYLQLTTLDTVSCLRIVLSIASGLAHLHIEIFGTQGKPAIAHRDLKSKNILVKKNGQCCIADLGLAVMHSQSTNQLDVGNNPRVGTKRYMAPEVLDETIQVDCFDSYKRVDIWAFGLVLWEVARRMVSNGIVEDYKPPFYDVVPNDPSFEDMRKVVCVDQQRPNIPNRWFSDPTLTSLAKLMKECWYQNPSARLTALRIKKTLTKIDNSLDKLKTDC
Chain of UniProt Q8WTQ7 (whole entry, looked up): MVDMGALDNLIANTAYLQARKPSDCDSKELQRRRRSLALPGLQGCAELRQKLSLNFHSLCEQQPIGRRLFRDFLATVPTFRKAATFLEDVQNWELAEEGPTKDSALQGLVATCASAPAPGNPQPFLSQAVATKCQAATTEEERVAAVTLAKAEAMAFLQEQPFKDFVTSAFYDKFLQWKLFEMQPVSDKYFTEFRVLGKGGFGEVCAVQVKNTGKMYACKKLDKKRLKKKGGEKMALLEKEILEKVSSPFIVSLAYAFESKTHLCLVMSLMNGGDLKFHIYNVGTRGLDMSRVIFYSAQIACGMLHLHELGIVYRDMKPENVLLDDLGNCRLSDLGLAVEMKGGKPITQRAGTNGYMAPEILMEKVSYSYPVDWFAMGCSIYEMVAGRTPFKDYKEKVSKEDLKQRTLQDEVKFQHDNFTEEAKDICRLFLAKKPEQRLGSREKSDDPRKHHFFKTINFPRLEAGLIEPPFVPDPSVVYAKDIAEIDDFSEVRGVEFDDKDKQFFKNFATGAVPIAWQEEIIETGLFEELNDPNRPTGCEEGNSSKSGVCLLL
Chain of UniProt P46734 (whole entry, looked up): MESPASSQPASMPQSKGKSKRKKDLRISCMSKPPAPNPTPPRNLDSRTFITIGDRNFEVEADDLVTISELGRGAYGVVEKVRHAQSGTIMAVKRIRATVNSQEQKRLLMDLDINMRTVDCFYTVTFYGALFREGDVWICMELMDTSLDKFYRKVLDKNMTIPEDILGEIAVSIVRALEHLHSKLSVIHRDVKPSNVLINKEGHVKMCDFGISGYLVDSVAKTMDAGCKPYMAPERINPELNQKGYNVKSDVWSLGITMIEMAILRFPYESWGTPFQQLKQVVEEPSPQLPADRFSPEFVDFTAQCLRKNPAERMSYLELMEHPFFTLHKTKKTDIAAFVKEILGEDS
Chain of UniProt P07949 (whole entry, unmodified, looked up): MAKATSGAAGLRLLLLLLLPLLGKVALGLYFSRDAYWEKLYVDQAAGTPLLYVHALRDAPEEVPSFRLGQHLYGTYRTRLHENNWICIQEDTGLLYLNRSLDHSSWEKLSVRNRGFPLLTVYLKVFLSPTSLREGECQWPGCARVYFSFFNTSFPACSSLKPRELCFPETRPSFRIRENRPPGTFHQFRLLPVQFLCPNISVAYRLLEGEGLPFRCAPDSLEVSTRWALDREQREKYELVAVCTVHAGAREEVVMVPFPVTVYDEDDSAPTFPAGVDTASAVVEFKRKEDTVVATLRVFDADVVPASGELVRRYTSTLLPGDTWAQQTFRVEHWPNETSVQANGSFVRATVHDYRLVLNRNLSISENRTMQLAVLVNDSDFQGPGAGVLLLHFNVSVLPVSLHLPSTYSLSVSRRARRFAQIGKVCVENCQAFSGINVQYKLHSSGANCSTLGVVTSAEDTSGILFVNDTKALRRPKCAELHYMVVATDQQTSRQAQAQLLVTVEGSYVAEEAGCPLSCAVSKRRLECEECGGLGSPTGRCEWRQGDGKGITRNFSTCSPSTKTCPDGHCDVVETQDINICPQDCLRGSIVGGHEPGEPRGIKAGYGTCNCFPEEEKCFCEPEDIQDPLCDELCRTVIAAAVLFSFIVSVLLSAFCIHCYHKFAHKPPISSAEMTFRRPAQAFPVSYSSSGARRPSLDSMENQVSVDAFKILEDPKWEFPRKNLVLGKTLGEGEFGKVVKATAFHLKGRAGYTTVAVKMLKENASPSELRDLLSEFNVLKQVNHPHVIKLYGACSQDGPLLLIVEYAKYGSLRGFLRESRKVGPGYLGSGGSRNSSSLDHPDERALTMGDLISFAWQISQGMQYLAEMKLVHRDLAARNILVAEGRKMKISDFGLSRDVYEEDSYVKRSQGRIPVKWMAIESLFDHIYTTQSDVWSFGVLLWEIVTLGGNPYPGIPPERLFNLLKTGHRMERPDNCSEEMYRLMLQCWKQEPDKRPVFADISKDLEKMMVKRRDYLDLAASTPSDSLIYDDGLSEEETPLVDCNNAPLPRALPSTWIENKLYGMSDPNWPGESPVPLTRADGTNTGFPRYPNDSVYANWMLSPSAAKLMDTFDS
Chain of UniProt P06239 (whole entry, looked up): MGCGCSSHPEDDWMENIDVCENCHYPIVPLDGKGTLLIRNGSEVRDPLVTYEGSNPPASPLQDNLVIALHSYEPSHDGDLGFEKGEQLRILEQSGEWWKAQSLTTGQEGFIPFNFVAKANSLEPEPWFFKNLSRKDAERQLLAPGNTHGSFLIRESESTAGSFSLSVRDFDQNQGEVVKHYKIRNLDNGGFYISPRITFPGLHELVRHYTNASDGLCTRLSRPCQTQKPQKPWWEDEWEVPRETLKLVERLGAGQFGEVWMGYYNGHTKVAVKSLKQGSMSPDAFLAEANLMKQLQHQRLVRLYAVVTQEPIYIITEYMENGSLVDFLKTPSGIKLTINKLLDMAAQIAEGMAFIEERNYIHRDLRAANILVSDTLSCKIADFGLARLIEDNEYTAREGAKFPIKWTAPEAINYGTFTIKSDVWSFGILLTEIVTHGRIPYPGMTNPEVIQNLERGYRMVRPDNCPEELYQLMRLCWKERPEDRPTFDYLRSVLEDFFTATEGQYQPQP
Chain of UniProt O75385 (whole entry, looked up): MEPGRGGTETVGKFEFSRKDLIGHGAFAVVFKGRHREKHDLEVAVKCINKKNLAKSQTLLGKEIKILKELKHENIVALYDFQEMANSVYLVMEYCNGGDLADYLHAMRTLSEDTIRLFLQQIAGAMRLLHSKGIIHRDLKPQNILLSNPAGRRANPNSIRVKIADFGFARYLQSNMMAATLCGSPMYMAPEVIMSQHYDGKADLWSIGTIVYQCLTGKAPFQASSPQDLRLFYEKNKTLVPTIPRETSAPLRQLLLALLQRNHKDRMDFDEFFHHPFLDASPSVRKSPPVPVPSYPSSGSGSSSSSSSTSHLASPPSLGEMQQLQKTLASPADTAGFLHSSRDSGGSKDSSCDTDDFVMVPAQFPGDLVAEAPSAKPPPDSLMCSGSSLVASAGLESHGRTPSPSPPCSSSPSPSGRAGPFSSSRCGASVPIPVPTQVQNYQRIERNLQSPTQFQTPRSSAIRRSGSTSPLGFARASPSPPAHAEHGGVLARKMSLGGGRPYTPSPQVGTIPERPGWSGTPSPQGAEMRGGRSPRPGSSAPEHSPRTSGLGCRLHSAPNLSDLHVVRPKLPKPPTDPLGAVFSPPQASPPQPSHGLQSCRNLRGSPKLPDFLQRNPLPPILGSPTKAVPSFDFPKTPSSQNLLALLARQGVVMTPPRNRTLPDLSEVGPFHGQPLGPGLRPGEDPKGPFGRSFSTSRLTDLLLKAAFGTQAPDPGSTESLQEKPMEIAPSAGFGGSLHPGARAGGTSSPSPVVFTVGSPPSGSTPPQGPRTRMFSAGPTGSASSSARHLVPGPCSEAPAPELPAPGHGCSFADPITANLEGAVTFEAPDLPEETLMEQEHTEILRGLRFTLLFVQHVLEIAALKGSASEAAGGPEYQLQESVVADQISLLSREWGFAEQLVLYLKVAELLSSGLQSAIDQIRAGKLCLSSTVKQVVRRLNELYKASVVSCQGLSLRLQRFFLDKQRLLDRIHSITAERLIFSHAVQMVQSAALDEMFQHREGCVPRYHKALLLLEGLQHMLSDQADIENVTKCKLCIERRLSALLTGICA
Chain of UniProt P08631 (whole entry, looked up): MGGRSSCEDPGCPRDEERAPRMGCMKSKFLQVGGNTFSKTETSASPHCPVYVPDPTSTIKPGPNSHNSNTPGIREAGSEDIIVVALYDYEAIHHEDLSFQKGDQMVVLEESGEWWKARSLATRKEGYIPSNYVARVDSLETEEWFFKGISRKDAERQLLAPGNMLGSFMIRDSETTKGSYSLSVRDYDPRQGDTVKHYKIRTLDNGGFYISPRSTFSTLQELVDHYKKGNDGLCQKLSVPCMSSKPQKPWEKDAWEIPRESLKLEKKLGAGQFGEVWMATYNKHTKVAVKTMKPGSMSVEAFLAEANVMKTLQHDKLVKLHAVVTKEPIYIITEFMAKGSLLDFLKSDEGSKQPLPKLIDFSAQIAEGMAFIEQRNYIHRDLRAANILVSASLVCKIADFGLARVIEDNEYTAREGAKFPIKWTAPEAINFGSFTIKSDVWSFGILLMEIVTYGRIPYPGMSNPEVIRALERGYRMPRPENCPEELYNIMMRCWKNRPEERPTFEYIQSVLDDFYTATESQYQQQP
Chain of UniProt Q96PN8 (whole entry, looked up): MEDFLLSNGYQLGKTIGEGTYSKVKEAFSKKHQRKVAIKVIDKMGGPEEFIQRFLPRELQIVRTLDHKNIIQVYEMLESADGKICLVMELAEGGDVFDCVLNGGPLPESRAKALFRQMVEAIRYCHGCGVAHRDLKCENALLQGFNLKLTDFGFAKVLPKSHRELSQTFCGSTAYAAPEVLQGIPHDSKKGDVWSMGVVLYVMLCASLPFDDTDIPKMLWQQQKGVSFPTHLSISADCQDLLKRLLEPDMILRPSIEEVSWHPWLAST

Series 1
Structure (SMILES): CC(=O)N1CCC(c2ccc(C(=O)NC(=N)N)cc2C(F)(F)F)CC1
Effect on: cell-free assay
Technique: competition with immobilised ligand
Tested at: 1 µM
target | remaining binding
PAK3 (Homo sapiens, UniProt O75914) | 84%
PIK3CG (Homo sapiens, UniProt P48736) | 100%
Ribosomal protein S6 kinase alpha-1, N-terminal kinase domain (RPS6KA1, Homo sapiens, UniProt Q15418) | 100%
EPHA6 (Homo sapiens, UniProt Q9UF33) | 96%
RET (Homo sapiens, UniProt P07949, V804L) | 97%
GRK7 (Homo sapiens, UniProt Q8WTQ7) | 97%
MAP2K3 (Homo sapiens, UniProt P46734) | 100%
RIOK2 (Homo sapiens, UniProt Q9BVS4) | 100%
CASK (Homo sapiens, UniProt O14936) | 100%
TIE1 (Homo sapiens, UniProt P35590) | 100%
FYN (Homo sapiens, UniProt P06241) | 100%
LCK (Homo sapiens, UniProt P06239) | 100%
TSSK1B (Homo sapiens, UniProt Q9BXA7) | 100%
MAP2K5 (Homo sapiens, UniProt Q13163) | 86%
ACVR1 (Homo sapiens, UniProt Q04771) | 100%
NUAK2 (Homo sapiens, UniProt Q9H093) | 100%
EGFR (Homo sapiens, UniProt P00533) | 100%
PRKCH (Homo sapiens, UniProt P24723) | 100%
PAK6 (Homo sapiens, UniProt Q9NQU5) | 100%
STK25 (Homo sapiens, UniProt O00506) | 100%
COQ8B (Homo sapiens, UniProt Q96D53) | 100%
PRKD1 (Homo sapiens, UniProt Q15139) | 100%
TSSK3 (Homo sapiens, UniProt Q96PN8) | 100%
CLK3 (Homo sapiens, UniProt P49761) | 100%

Series 2
Structure (SMILES): CC(C)[C@H](CO)Nc1nc(Nc2cccc(Cl)c2)c2ncn(C(C)C)c2n1
Effect on: enzyme activity
Action: inhibitor
Tested at: 0.5 µM
Baseline: control
target | remaining activity
NTRK2 (Homo sapiens, UniProt Q16620) | 33.4%
INSRR (Homo sapiens, UniProt P14616) | 88.2%
HCK (Homo sapiens, UniProt P08631) | 55.6%
TNK2 (Homo sapiens, UniProt Q07912) | 55.6%
TAOK1 (Homo sapiens, UniProt Q7L7X3) | 95.4%
ULK1 (Homo sapiens, UniProt O75385) | 67.5%
DYRK2 (Homo sapiens, UniProt Q92630) | 98.4%
PRKD3 (Homo sapiens, UniProt O94806) | 95.5%
MAP4K5 (Homo sapiens, UniProt Q9Y4K4) | 97.5%
MAP3K9 (Homo sapiens, UniProt P80192) | 37.8%
PLK1 (Homo sapiens, UniProt P53350) | 89.2%
PHKG2 (Homo sapiens, UniProt P15735) | 117%
DSTYK (Homo sapiens, UniProt Q6XUX3) | 105%
PDGFRB (Homo sapiens, UniProt P09619) | 106%
FGFR2 (Homo sapiens, UniProt P21802) | 105%
RAF1 (Homo sapiens, UniProt P04049) | 98.9%
ACVR1 (Homo sapiens, UniProt Q04771) | 92.6%
VRK1 (Homo sapiens, UniProt Q99986) | 99.5%
SGK3 (Homo sapiens, UniProt Q96BR1) | 97.6%
RIPK2 (Homo sapiens, UniProt O43353) | 88.1%

Series 3
Host: human
Sample: microsomes or S9
Tested at: 2 µM
Time: 0.5 h
SMILES | remaining compound [%]
CC(C)COc1cc(=O)n2c(c1C(=O)NCCCn1cccn1)CCCCC2 | 57.2
C1CN(c2nc(N3CCOCC3)c3nn[nH]c3n2)CCO1 | 73.4
COc1cccc(-c2csc(C3(c4ccc(OC)c(C)c4)N=C(N)N(C)C3=O)n2)c1 (stereo not shown) | 41.6
Cc1nc2[nH]nc(N)c2c(C)c1-c1cnn(CCC(C)C)c1 | 42
O=c1ccc2cnc(Nc3cnn(C4CCNCC4)c3)nc2n1C1CCCCCC1 | 74.7
Cc1ccnn1CCNC(=O)CCc1nc2ncc(Br)cc2[nH]1 | 71.8
O=C1CCc2cc(Cl)ccc2N1Cc1ccc(Cl)cc1Cl | 54.2

Series 4
Compound: CC(=O)N[C@@H](Cc1c[nH]c2ccccc12)C(=O)N[C@@H](CCC(=O)C=[N+]=[N-])C(=O)OC(C)C
Tested at: 5 µM
test system | conditions | remaining compound [%]
mouse intestinal homogenate | 0 h, no inhibitor | 100
mouse, EL4 tumour homogenate | 0.05 h, with: Pefabloc 1 mM | 96.1
mouse intestinal homogenate | 0 h, with: bestatin 10 µM | 100
mouse intestinal homogenate | 0 h, with: E64 10 µM | 100
mouse EL4 tumour homogenate | 0.05 h, with: E64 10 µM | 0.272
mouse intestinal homogenate | 1 h, with: leupeptin 100 µM | 8.44
mouse intestinal homogenate | 0.05 h, with: dichlorvos 500 µM | 93

For quick reference, copied from above (series 2):
target | remaining activity
FGFR2 (Homo sapiens, UniProt P21802) | 105%
VRK1 (Homo sapiens, UniProt Q99986) | 99.5%
RIPK2 (Homo sapiens, UniProt O43353) | 88.1%
TAOK1 (Homo sapiens, UniProt Q7L7X3) | 95.4%
ACVR1 (Homo sapiens, UniProt Q04771) | 92.6%
DYRK2 (Homo sapiens, UniProt Q92630) | 98.4%
ULK1 (Homo sapiens, UniProt O75385) | 67.5%
MAP3K9 (Homo sapiens, UniProt P80192) | 37.8%
RAF1 (Homo sapiens, UniProt P04049) | 98.9%
